Measured values gathered from unrelated publications.

SMILES	assay	system	conditions	Vz/F
O=C1CC[C@H](N2Cc3cc(N4CCN(CC5CCN(c6ccc([C@@H]7c8ccc(O)cc8CC[C@@H]7c7ccccc7)cc6)CC5)CC4)ccc3C2=O)C(=O)N1	–	human	oral, 200 mg, with: rosuvastatin 10 mg	330 L
C[C@H]1O[C@@H](O[C@H]2[C@@H](O)C[C@H](O[C@H]3[C@@H](O)C[C@H](O[C@H]4CC[C@@]5(C)[C@H](CC[C@@H]6[C@@H]5C[C@@H](O)[C@]5(C)[C@@H](C7=CC(=O)OC7)CC[C@]65O)C4)O[C@@H]3C)O[C@@H]2C)C[C@H](O)[C@@H]1O	–	human	oral, substrate with omaveloxolone, with: omaveloxolone once daily	759 L
CN1C(=O)[C@@H](NC(=O)c2nnc(Cc3ccccc3)[nH]2)COc2cccnc21	–	healthy human, fasted, plasma	oral, 30 mg single dose, geometric mean	44.1 L
CC(C)C[C@H](NC(=O)[C@H](CC(C)C)NC(=O)[C@H](Cc1c[nH]c2ccccc12)NC(=O)[C@H](CCC(=O)O)NC(=O)[C@@H](NC(=O)[C@H](Cc1ccccc1)NC(=O)[C@H](CCC(=O)O)NC(=O)[C@H](CCCCNC(=O)COCCOCCNC(=O)COCCOCCNC(=O)CC[C@H](NC(=O)CCCCCCCCCCCCCCCCCCC(=O)O)C(=O)O)NC(=O)[C@H](C)NC(=O)[C@H](CCCCN)NC(=O)[C@H](CCCCN)NC(=O)[C@H](CCC(=O)O)NC(=O)[C@H](CC(=O)O)NC(=O)[C@H](CC(C)C)NC(=O)[C@H](Cc1ccc(O)cc1)NC(=O)[C@H](CCCCN)NC(=O)[C@H](CO)NC(=O)[C@H](Cc1ccc(O)cc1)NC(=O)[C@H](CC(=O)O)NC(=O)[C@H](CO)NC(=O)[C@@H](NC(=O)[C@H](Cc1ccccc1)NC(=O)[C@@H](NC(=O)CNC(=O)[C@H](CCC(N)=O)NC(=O)C(C)(C)NC(=O)[C@@H](N)Cc1c[nH]cn1)[C@@H](C)O)[C@@H](C)O)C(C)C)C(=O)N[C@@H](CCC(=O)O)C(=O)NCC(=O)NCC(=O)N1CCC[C@H]1C(=O)N[C@@H](CO)C(=O)N[C@@H](CO)C(=O)NCC(N)=O	–	human, plasma	subcutaneous, 16 mg once weekly, week 20, geometric mean	6.5 L
Cc1cc(C)c(CNC(=O)c2cc(Cl)c3c(c2C)O[C@@](C)([C@H]2CC[C@H](N(C)C)CC2)O3)c(=O)[nH]1	mean	healthy male humans, plasma	oral, 25 mg, day 11, with: itraconazole	449 L
CN(C)C(=O)c1cc2cnc(Nc3ccc(N4CCNCC4)cn3)nc2n1C1CCCC1	–	human, normal renal function, plasma	oral, 400 mg, single dose, geometric mean	5070 L
C[C@@H](c1ccc2nccn2c1)n1nnc2ncc(-c3cnn(C)c3)nc21	–	human, plasma	oral, 300 mg, cycle 1 day 1, single dose	138 L
Fc1ccc([C@@H]2CCNC[C@H]2COc2ccc3c(c2)OCO3)cc1	–	human, CYP2D6 normal metabolizers	oral, 20 mg, steady state, geometric mean	1620 L
CNC(=O)n1ccc2cc(Oc3ccnc(NC(=O)c4ccc(C5CCN(CCO)CC5)cc4)c3)c(OCCOC)cc21	–	healthy human, plasma	oral, 35 mg, geometric mean, with: rabeprazole 20 mg	12500 L
C[C@H](Oc1ccc(Br)cc1-c1ccon1)C(=O)O	–	healthy male humans, plasma	oral, 200 mg once daily, day 10	37.2 L
C#C[C@]1(CO)O[C@@H](n2cnc3c(N)nc(F)nc32)C[C@@H]1O	–	human, plasma	oral, 15 mg, single dose, geometric mean	2400 L
Cn1cc(-c2cn3nccc3c(-c3cnn([C@]4(CC#N)C[C@@H](C#N)C4)c3)n2)cn1	–	healthy human fasted	1600 mg single dose	2880 L
[H]/N=C(/N)c1ccc(NCc2nc3cc(C(=O)N(CCC(=O)O)c4ccccn4)ccc3n2C)cc1	–	healthy human subjects, plasma	oral, 150 mg, dabigatran etexilate alone, arithmetic mean	1910 L
Cc1nsc(-c2nnc3n2CCN(C(=O)c2ccc(F)cc2)[C@@H]3C)n1	–	human, plasma	oral, assumed 70 kg body weight	~2.7 L/kg
CC1(C)CC[C@]2(NC(=O)C(C)(F)F)CC[C@]3(C)[C@H](C(=O)C=C4[C@@]5(C)C=C(C#N)C(=O)C(C)(C)[C@@H]5CC[C@]43C)[C@@H]2C1	–	human	oral, 150 mg, single dose alone	14600 L
CC(C)c1nc(N(C)S(C)(=O)=O)nc(-c2ccc(F)cc2)c1/C=C/[C@@H](O)C[C@@H](O)CC(=O)O	–	healthy human subjects, plasma	oral, 10 mg, arithmetic mean, with: none	5920 L
NC(=S)NN=Cc1ncccc1N	–	human, plasma	intravenous, 50 mg, geometric mean	114 L
CC(C)c1nc(N(C)S(C)(=O)=O)nc(-c2ccc(F)cc2)c1/C=C/[C@@H](O)C[C@@H](O)CC(=O)O	–	human	oral, substrate with omaveloxolone, with: omaveloxolone once daily	7470 L

A few entries again:
SMILES	assay	system	conditions	Vz/F
CC(C)C[C@H](NC(=O)[C@H](CC(C)C)NC(=O)[C@H](Cc1c[nH]c2ccccc12)NC(=O)[C@H](CCC(=O)O)NC(=O)[C@@H](NC(=O)[C@H](Cc1ccccc1)NC(=O)[C@H](CCC(=O)O)NC(=O)[C@H](CCCCNC(=O)COCCOCCNC(=O)COCCOCCNC(=O)CC[C@H](NC(=O)CCCCCCCCCCCCCCCCCCC(=O)O)C(=O)O)NC(=O)[C@H](C)NC(=O)[C@H](CCCCN)NC(=O)[C@H](CCCCN)NC(=O)[C@H](CCC(=O)O)NC(=O)[C@H](CC(=O)O)NC(=O)[C@H](CC(C)C)NC(=O)[C@H](Cc1ccc(O)cc1)NC(=O)[C@H](CCCCN)NC(=O)[C@H](CO)NC(=O)[C@H](Cc1ccc(O)cc1)NC(=O)[C@H](CC(=O)O)NC(=O)[C@H](CO)NC(=O)[C@@H](NC(=O)[C@H](Cc1ccccc1)NC(=O)[C@@H](NC(=O)CNC(=O)[C@H](CCC(N)=O)NC(=O)C(C)(C)NC(=O)[C@@H](N)Cc1c[nH]cn1)[C@@H](C)O)[C@@H](C)O)C(C)C)C(=O)N[C@@H](CCC(=O)O)C(=O)NCC(=O)NCC(=O)N1CCC[C@H]1C(=O)N[C@@H](CO)C(=O)N[C@@H](CO)C(=O)NCC(N)=O	–	human, plasma	subcutaneous, 16 mg once weekly, week 20, geometric mean	6.5 L
